Measured values of several laboratories.
Parts stem from different laboratories: compare values within a part only. Substitutions count along the parent as printed.

Series 1 — target: CCNB2, cyclin fold, Cln2 fusion (human); method: yeast growth competition, sequencing; sample: yeast; setting: weak parent motif; relative to: not given; reading: higher = stronger binding
Starting sequence: viral docking peptide; KKVKRRLFETREL; partner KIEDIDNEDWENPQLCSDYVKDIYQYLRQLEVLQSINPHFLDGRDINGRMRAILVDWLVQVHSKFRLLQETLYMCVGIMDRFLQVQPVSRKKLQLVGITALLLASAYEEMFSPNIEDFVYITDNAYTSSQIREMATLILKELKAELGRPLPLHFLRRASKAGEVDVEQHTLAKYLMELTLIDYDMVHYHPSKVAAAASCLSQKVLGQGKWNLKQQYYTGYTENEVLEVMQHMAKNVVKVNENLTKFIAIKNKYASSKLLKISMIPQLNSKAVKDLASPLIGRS
Under “normalised enrichment score”, `R5A L7A` is recorded as 0.581.
Under “normalised enrichment score”, `R11A` is recorded as -0.217.
`E12A`: “normalised enrichment score” 1.06.
Under “normalised enrichment score”, `K4A` is recorded as 0.089.
`F8L`: “normalised enrichment score” 0.85.
For `R5K F8L`, “normalised enrichment score” read 0.714.
For `R5A`, “normalised enrichment score” read 1.02.
For `L7A`, “normalised enrichment score” read 1.17.
For `T10A`, “normalised enrichment score” read 0.281.

Series 2 — target: inorganic phosphate, free oxyanion; method: microfluidic competitive inhibition; sample: in vitro, cell-free expressed; tested at: not given; reading: lower = stronger binding
Setting: derived from inhibition constants, unchanged parent 615000 nM
Starting sequence: PafA, mature enzyme, eGFP fusion (Elizabethkingia meningoseptica, UniProt Q9KJX5); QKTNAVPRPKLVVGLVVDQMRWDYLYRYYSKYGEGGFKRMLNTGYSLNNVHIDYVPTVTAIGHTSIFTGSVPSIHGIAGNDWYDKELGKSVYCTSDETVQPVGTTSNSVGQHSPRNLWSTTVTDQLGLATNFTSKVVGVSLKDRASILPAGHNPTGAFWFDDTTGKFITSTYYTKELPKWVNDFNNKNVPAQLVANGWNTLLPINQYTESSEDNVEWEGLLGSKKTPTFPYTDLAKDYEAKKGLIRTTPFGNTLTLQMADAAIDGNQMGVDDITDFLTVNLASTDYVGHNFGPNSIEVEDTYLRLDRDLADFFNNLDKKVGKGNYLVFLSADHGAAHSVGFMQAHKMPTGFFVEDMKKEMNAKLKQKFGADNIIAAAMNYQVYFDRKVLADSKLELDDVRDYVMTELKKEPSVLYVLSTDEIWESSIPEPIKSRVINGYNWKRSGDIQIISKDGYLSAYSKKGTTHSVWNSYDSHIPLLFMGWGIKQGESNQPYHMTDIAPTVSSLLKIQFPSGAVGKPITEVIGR
`E239V`: “phosphate dissociation constant” 577 µM.
Under “phosphate dissociation constant”, `L41V` is recorded as 578 µM.
For `Y238V`, “phosphate dissociation constant” read 515 µM.
For `N315V`, “phosphate dissociation constant” read 684 µM.
Under “phosphate dissociation constant”, `A458V` is recorded as 674 µM.
`G484V`: “phosphate dissociation constant” 640 µM.

Series 3 — Substance: HNRNPA2B1 (Homo sapiens, UniProt P22626); method: cross-linking MS; setting: hits only
The interaction screen was “cross-linked” (HNRNPAB (Homo sapiens, UniProt Q99729)).
The interaction screen was “cross-linked” (RBMX (Homo sapiens, UniProt P38159)).
For HNRNPA3 (Homo sapiens, UniProt P51991): interaction screen read “cross-linked”.

Series 4 — effect on: binding; method: phage display NGS; molecule type: peptide; setting: panning round 2; relative to: input library
Target: UDP-N-acetylglucosamine--peptide N-acetylglucosaminyltransferase 110 kDa subunit (OGT, Homo sapiens, UniProt O15294)
Sequence of UniProt O15294 (whole entry, looked up): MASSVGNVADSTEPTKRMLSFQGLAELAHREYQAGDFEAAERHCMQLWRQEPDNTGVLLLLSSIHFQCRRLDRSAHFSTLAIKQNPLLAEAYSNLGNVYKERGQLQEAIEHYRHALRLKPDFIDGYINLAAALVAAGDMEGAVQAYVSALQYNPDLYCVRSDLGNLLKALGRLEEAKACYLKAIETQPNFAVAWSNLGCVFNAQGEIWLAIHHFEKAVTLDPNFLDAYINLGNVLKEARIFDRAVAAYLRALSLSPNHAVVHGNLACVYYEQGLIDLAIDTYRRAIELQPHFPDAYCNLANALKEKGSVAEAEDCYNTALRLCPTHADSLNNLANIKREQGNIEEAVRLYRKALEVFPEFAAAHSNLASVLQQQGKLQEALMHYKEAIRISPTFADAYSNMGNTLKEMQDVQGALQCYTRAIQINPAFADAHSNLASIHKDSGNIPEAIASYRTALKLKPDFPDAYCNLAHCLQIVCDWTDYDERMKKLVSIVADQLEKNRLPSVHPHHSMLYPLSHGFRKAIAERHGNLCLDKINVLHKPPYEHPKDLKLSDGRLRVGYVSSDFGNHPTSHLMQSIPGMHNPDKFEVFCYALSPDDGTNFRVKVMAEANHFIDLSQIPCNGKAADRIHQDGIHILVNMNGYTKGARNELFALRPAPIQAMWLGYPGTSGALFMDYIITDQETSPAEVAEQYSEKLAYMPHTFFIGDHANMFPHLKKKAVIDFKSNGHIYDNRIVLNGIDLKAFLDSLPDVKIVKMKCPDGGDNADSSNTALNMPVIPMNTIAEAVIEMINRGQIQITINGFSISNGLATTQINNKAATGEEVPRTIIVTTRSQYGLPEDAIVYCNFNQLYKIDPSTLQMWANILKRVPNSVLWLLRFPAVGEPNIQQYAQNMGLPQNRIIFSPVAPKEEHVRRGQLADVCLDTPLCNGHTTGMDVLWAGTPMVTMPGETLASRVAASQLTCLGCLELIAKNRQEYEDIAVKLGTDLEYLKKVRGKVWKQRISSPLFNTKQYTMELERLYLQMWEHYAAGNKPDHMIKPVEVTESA
For `DGQFKPVYMIDYGV`, “minimum log2 enrichment ratio” read 2.97.
Under “minimum log2 enrichment ratio”, `YPHHDGHSHSYEPFH` is recorded as 2.08.
`EMEVYDYFPFYQIQV` — result for “minimum log2 enrichment ratio”: 3.32.
For `QPIDWLHVHRNYHH`, “minimum log2 enrichment ratio” read 2.63.
For `HNRHMHQHSHYMADT`, “minimum log2 enrichment ratio” read 2.61.

A few entries again (series 1):
Under “normalised enrichment score”, `K4A` is recorded as 0.089.
